Measurements gathered from unrelated publications.
Compare with care: the assays were run in different laboratories. Several values in a cell are separate wells, animals, samples, runs or records. ± gives the spread as reported.

Molecule = O=C(/C=C/c1ccc2c(=O)n(Cc3ccccc3F)cnc2c1)NO; target = histone deacetylase; assay = enzyme activity, inhibitor; test system = HeLa nuclear extract; IC50 = 98 ± 2 nM
Molecule = O=C(NO)c1ccc(NC(=O)[C@@H](NC(=O)c2ccccc2)c2ccccc2)cc1; target = HDAC (HeLa nuclear extract); assay = enzyme activity, inhibitor; IC50 = 28.7 ± 2.2 nM
Molecule = CCCn1cnc2ccc(/C=C/C(=O)NO)cc2c1=O; target = histone deacetylase; assay = enzyme activity, inhibitor; test system = HeLa nuclear extract; IC50 = 925 ± 30 nM
Molecule = O=C(NO)c1ccc(NC(=O)[C@@H](NS(=O)(=O)c2ccc(Cl)cc2)c2ccccc2)cc1; target = HDAC (HeLa nuclear extract); assay = enzyme activity, inhibitor; IC50 = 126 nM and 125 nM
Molecule = O=C(/C=C/c1ccc2c(=O)n(Cc3cccc(F)c3)cnc2c1)NO; target = histone deacetylase; assay = enzyme activity, inhibitor; test system = HeLa nuclear extract; IC50 = 96 ± 1 nM
Molecule = Nc1ncnc2c1ncn2[C@@H]1O[C@H](COP(=O)(O)OP(=O)(O)OP(=O)(O)O)[C@@H](O)[C@H]1O; target = SUR2A entire Q/N mutant/Kir6.2; assay = KATP channel current, inhibitor, inside-out patch clamp; test system = HEK293; setting = without Mg2+; IC50 = 15000 ± 2600 nM
Molecule = O=C(NC(=O)c1c(F)cccc1F)Nc1cc(Cl)c(OC(F)(F)C(F)C(F)(F)F)cc1Cl (centres unmarked); target = mAb-19F2 (BALB/c mouse monoclonal antibody); assay = antibody binding, indirect competitive ELISA; IC50 = > 1 µg/mL
Molecule = NC[C@@H]1O[C@H](O[C@H]2[C@@H](O)[C@H](O[C@@H]3[C@@H](O)[C@H](N)C[C@H](N)[C@H]3O[C@H]3O[C@H](CO)[C@@H](O)[C@H](O)[C@H]3N)O[C@@H]2CO)[C@H](N)[C@@H](O)[C@@H]1O; target = Leishmania tarentolae ribosome; assay = cell-free translation, inhibitor, measured: EGFP reporter; test system = Leishmania tarentolae S30 extract; IC50 = 3930 nM and 3900 nM
Molecule = O=C(/C=C/c1ccc2ncn(Cc3cccc(F)c3)c(=O)c2c1)NO; target = histone deacetylase; assay = enzyme activity, inhibitor; test system = HeLa nuclear extract; IC50 = 588 ± 12 nM
Molecule = COc1ccccc1NC(=O)N[C@H](C(=O)Nc1ccc(C(=O)NO)cc1)c1ccccc1; target = HDAC (HeLa nuclear extract); assay = enzyme activity, inhibitor; IC50 = 7.5 ± 0.2 nM
Molecule = pneumocandin I; target = 1,3-beta-D-glucan synthase (Candida albicans ATCC 10231); assay = enzyme activity, inhibitor; test system = membrane preparation; setting = 60 min, pH 7.5, 30 °C, together with: UDP-[14C]-glucose 1 mM; IC50 = 5.67 ± 1.06 µg/mL
Molecule = Cc1c(-c2ccc(C(=N)N)cc2)oc(-c2ccc(C(=N)N)cc2)c1C; target = NQO2; assay = protection from toxicity; test system = MDA-MB-468; setting = 3 h, together with: CB1954 100 µM plus NRH 100 µM; IC50 = 18000 ± 16000 nM
Molecule = CC(C)C[C@H](NC(=O)[C@@H](NC(=O)N[C@H](C(=O)OC(C)(C)C)C(C)C)C(C)C)C(=O)N[C@@H](CC(C)C)C(=O)[C@@]1(C)CO1; target = rabbit 26S proteasome beta2; assay = trypsin-like activity; setting = 30 min, 37 °C, together with: Ac-RLR-AMC; IC50 = > 300 nM
Molecule = O=C(/C=C/c1ccc2ncn(CCCl)c(=O)c2c1)NO; target = histone deacetylase; assay = enzyme activity, inhibitor; test system = HeLa nuclear extract; IC50 = 2385 ± 9 nM
Molecule = Cc1ccc(NC(=O)CCCCCC(=O)Nc2ccccc2N)cc1; target = HDAC (HeLa nuclear extract); assay = enzyme activity, inhibitor; IC50 = 1300 nM
Molecule = CC(C)C[C@H](NC(=O)[C@@H](NC(=O)N[C@H](C(=O)OC(C)(C)C)C(C)C)C(C)C)C(=O)[C@@]1(C)CO1; target = rabbit 26S proteasome beta2; assay = trypsin-like activity; setting = 30 min, 37 °C, together with: Ac-RLR-AMC; IC50 = > 30000 nM
Molecule = O=C(/C=C/c1ccc2c(=O)n(Cc3ccccc3)cnc2c1)NO; target = histone deacetylase; assay = enzyme activity, inhibitor; test system = HeLa nuclear extract; IC50 = 247 ± 21 nM
Molecule = O=c1[nH]c(=O)c2[nH]c(=O)[nH]c2[nH]1; target = human α-synuclein; assay = peroxynitrite-induced nitration, inhibitor, ELISA; setting = together with: α-synuclein 1 µM; IC50 = 63000 nM
Molecule = CCN(Cc1ccc(Cl)nc1)/C(=C/[N+](=O)[O-])NC; target = mAb-19F2 (BALB/c mouse monoclonal antibody); assay = antibody binding, indirect competitive ELISA; IC50 = > 1 µg/mL
Molecule = O=C(NO)c1ccc(NC(=O)[C@@H](NS(=O)(=O)c2ccc(C(F)(F)F)cc2)c2ccccc2)cc1; target = HDAC (HeLa nuclear extract); assay = enzyme activity, inhibitor; IC50 = 85.5 ± 6.7 nM
Molecule = O=C(/C=C/c1ccc2c(=O)n(Cc3ccc(F)cc3)cnc2c1)NO; target = histone deacetylase; assay = enzyme activity, inhibitor; test system = HeLa nuclear extract; IC50 = 48 nM
Molecule = CC(COc1ccc(Oc2ccccc2)cc1)Oc1ccccn1 (centres unmarked); target = mAb-19F2 (BALB/c mouse monoclonal antibody); assay = antibody binding, indirect competitive ELISA; IC50 = > 1 µg/mL
Molecule = Cc1cc(N)c2ccccc2[n+]1CCCCCCCCCC[n+]1c(C)cc(N)c2ccccc21; target = CNG channel CNGA1-P, Bos taurus; assay = cGMP-activated current, blocker, inside-out patch clamp; setting = pH 7.2, room temperature, 0 mV holding, steps to +20 mV, together with: cGMP 2 mM; IC50 = 80 ± 0.1 nM
Molecule = O=C(NO)c1ccc(NC(=O)[C@@H](NC(=O)c2ccc(Cl)cc2)c2ccccc2)cc1; target = HDAC (HeLa nuclear extract); assay = enzyme activity, inhibitor; IC50 = 349 nM and 348 nM
Molecule = O=C(/C=C/c1ccc2c(=O)n(CCO)cnc2c1)NO; target = histone deacetylase; assay = enzyme activity, inhibitor; test system = HeLa nuclear extract; IC50 = 91 ± 5 nM
Molecule = CCOC(=O)NCCOc1ccc(Oc2ccccc2)cc1; target = mAb-19F2 (BALB/c mouse monoclonal antibody); assay = antibody binding, indirect competitive ELISA; IC50 = > 1 µg/mL
Molecule = O=C(NO)c1ccc(NC(=O)[C@@H](NC(=O)c2ccc(F)cc2)c2ccccc2)cc1; target = HDAC (HeLa nuclear extract); assay = enzyme activity, inhibitor; IC50 = 25.5 ± 1.6 nM
Molecule = CC(=O)C(=O)O; target = HDAC from MCF7 cells; assay = inhibitor; IC50 = 69000 ± 12000 nM
Molecule = O=C(NO)c1ccc(NC(=O)[C@@H](NS(=O)(=O)c2cccc3ccccc23)c2ccccc2)cc1; target = HDAC (HeLa nuclear extract); assay = enzyme activity, inhibitor; IC50 = 15.6 ± 1.1 nM
Molecule = Cc1cn([C@H]2C[C@H](O)[C@@H](CO)O2)c(=O)[nH]c1=O; target = nucleoside transporters; assay = gemcitabine flux; test system = mouse, jejunum in situ perfusion; setting = together with: gemcitabine 5 µM; IC50 = 98500 nM
Molecule = Nc1nc(N)nc(NC2CC2)n1; target = mAb-19F2 (BALB/c mouse monoclonal antibody); assay = antibody binding, indirect competitive ELISA; IC50 = > 1 µg/mL
Molecule = pneumocandin B0; target = 1,3-beta-D-glucan synthase (Candida albicans ATCC 10231); assay = enzyme activity, inhibitor; test system = membrane preparation; setting = 60 min, pH 7.5, 30 °C, together with: UDP-[14C]-glucose 1 mM; IC50 = 3.43 ± 1.09 µg/mL
Molecule = COc1ccc(C(=O)N[C@H](C(=O)Nc2ccc(C(=O)NO)cc2)c2ccccc2)cc1; target = HDAC (HeLa nuclear extract); assay = enzyme activity, inhibitor; IC50 = 20.5 ± 1.1 nM
Molecule = CC(c1ccc(C(F)(F)F)nc1)S(C)(=O)=NC#N (centres unmarked); target = mAb-19F2 (BALB/c mouse monoclonal antibody); assay = antibody binding, indirect competitive ELISA; IC50 = > 1 µg/mL
Molecule = pneumocandin K; target = 1,3-beta-D-glucan synthase (Candida albicans ATCC 10231); assay = enzyme activity, inhibitor; test system = membrane preparation; setting = 60 min, pH 7.5, 30 °C, together with: UDP-[14C]-glucose 1 mM; IC50 = 4.99 ± 0.82 µg/mL

For quick reference, copied from above:
Molecule = CC(C)C[C@H](NC(=O)[C@@H](NC(=O)N[C@H](C(=O)OC(C)(C)C)C(C)C)C(C)C)C(=O)N[C@@H](CC(C)C)C(=O)[C@@]1(C)CO1; target = rabbit 26S proteasome beta2; assay = trypsin-like activity; setting = 30 min, 37 °C, together with: Ac-RLR-AMC; IC50 = > 300 nM
Molecule = O=C(NO)c1ccc(NC(=O)[C@@H](NC(=O)c2ccc(Cl)cc2)c2ccccc2)cc1; target = HDAC (HeLa nuclear extract); assay = enzyme activity, inhibitor; IC50 = 349 nM and 348 nM
Molecule = NC[C@@H]1O[C@H](O[C@H]2[C@@H](O)[C@H](O[C@@H]3[C@@H](O)[C@H](N)C[C@H](N)[C@H]3O[C@H]3O[C@H](CO)[C@@H](O)[C@H](O)[C@H]3N)O[C@@H]2CO)[C@H](N)[C@@H](O)[C@@H]1O; target = Leishmania tarentolae ribosome; assay = cell-free translation, inhibitor, measured: EGFP reporter; test system = Leishmania tarentolae S30 extract; IC50 = 3930 nM and 3900 nM
Molecule = Nc1ncnc2c1ncn2[C@@H]1O[C@H](COP(=O)(O)OP(=O)(O)OP(=O)(O)O)[C@@H](O)[C@H]1O; target = SUR2A entire Q/N mutant/Kir6.2; assay = KATP channel current, inhibitor, inside-out patch clamp; test system = HEK293; setting = without Mg2+; IC50 = 15000 ± 2600 nM
